Assay results of several laboratories.
Compare with care: the assays were run in different laboratories. Numbers after ± are the reported error.
HCRTR1: Orexin/Hypocretin receptor type 1 (HCRTR1, Homo sapiens, UniProt O43613)
Sequence of UniProt O43613 (whole entry, looked up): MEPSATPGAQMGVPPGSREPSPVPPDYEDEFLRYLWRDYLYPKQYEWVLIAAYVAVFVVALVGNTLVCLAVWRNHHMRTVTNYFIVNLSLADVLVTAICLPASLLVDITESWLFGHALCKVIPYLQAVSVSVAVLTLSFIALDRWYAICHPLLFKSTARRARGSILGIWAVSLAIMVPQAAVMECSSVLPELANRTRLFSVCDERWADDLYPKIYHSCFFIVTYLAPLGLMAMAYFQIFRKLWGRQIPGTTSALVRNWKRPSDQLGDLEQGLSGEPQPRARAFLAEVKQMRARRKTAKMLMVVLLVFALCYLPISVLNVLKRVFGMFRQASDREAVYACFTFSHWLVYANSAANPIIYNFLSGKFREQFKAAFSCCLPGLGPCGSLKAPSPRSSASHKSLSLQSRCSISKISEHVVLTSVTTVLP
Sequence of UniProt Q00195 (whole entry, unmodified, looked up): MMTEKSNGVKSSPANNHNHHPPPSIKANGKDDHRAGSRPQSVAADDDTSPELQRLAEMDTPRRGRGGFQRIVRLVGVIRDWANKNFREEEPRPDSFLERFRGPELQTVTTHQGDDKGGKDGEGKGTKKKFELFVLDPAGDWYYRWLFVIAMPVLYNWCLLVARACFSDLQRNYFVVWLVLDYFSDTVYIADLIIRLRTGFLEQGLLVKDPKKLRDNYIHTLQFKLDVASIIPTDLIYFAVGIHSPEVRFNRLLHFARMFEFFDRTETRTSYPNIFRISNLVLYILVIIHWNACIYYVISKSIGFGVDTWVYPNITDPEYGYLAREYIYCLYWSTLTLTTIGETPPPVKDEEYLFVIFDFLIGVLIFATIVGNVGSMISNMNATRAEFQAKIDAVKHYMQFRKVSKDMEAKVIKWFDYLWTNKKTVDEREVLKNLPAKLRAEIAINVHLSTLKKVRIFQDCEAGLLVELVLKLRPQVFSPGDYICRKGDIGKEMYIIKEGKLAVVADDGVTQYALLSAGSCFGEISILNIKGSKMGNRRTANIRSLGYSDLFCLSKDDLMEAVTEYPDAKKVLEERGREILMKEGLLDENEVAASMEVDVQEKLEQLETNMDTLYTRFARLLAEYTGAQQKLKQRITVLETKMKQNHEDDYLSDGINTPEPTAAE

COc1ccc(N(C)c2nc(Cl)ccc2CO)cc1 — GI50 (human tumour cell panel; cell growth, SRB; range over compounds, cells): 200 to 3250 nM
Cc1c(C)c2c(c(C)c1O)CCC(C)(C(=O)NN=C1C(=O)Nc3ccc(F)cc31)O2 (stereo not shown) — GI50 (MCF7; cell growth or viability, SRB; 48 h): 62700 nM
CC(C)[C@H](NC(=O)[C@@H]1CCCN1C(=O)[C@H](CCCNC(=N)N)NC(=O)[C@H](CS)NC(=O)[C@H](Cc1c[nH]c2ccccc12)NC(=O)[C@H](CCCNC(=N)N)NC(=O)[C@@H](Cc1ccccc1)NC(=O)[C@H](Cc1c[nH]cn1)NC(=O)[C@H](CCC(=O)O)NC(=O)[C@H](CS)NC(=O)[C@H](CS)NC(=O)[C@H](CCCCN)NC(=O)[C@@H]1CC(=O)N[C@@H](CCCNC(=N)N)C(=O)N[C@@H](C)C(=O)N[C@@H](CC(=O)O)C(=O)N[C@H](Cc2ccc(O)cc2)C(=O)N1)C(N)=O [technetium-99m labelled] — tissue uptake (C57 mice, stomach; intravenous, 0.037 MBq, 4 h): 1.09 ± 0.37 %ID/g
CCC(C)Oc1nc(N)nc(N)c1C#N (stereo not shown) — GI50 (HT-29; cell growth or viability, SRB; 72 h): > 100000 nM
COc1cc2c(cc1OC)C(Cc1ccc(C)c(C)c1)N(CC(=O)NCc1ccccc1)CC2 (stereo not shown) — Kb (HCRTR1; calcium signal, antagonist, fluorescence): 94 nM
CCOC(=O)c1ccc(C(F)(F)F)nc1N(C)c1ccc(OC)cc1 — GI50 (human tumour cell panel; cell growth, SRB; range over compounds, cells): 190 to 1810 nM
NS(=O)(=O)c1ccc(Nc2nc(OCC3CCCCC3)c3nc[nH]c3n2)cc1 — GI50 (HT-29; cell growth or viability, SRB; 72 h): 13000 nM
Cc1c(C)c2c(c(C)c1OCc1ccccc1)CCC(C)(C(=O)NN=C1C(=O)Nc3ccccc31)O2 (stereo not shown) — GI50 (MCF7; cell growth or viability, SRB; 48 h): 45900 nM
CCCOc1ccc(CC2c3cc(OC)c(OC)cc3CCN2CC(=O)NCc2ccccc2)cc1 (stereo not shown) — Kb (HCRTR1; calcium signal, antagonist, fluorescence): 370 nM
C#C[C@@]1(O)[C@@H](CO)O[C@@H](n2cc(Br)c3c(N)ncnc32)[C@@H]1O — GI50 (LOX IMVI; cell growth or viability, SRB; 48 h): 67 nM
Nc1nc2c(ncn2[C@@H]2O[C@@H]3COP(=O)(O)O[C@H]3[C@H]2O)c(=O)[nH]1 — relative maximal current (Cnga2 (Rattus norvegicus, UniProt Q00195, E583M); agonist, inside-out patch clamp; concentration not given; baseline: saturating cAMP): ~40%
C#C[C@@]1(O)[C@@H](CO)O[C@@H](n2cc(Cl)c3c(N)ncnc32)[C@@H]1O — GI50 (DU-145; cell growth or viability, SRB; 48 h): 134 nM
COCc1ccc(C(F)(F)F)nc1N(C)c1ccc(OC)cc1 — GI50 (human tumour cell panel; cell growth, SRB; range over compounds, cells): 200 to 3250 nM

For quick reference, copied from above:
COc1cc2c(cc1OC)C(Cc1ccc(C)c(C)c1)N(CC(=O)NCc1ccccc1)CC2 (stereo not shown) — Kb (HCRTR1; calcium signal, antagonist, fluorescence): 94 nM
